# Experimental data collected from several papers.
# Lines come from different studies, so protocols differ.
Structure (SMILES),test,test system,setting,how to read,adverse event incidence
Cc1ccc(Sc2ccccc2N2CCNCC2)c(C)c1,TEAE Diarrhea,elderly women,"oral, 10 mg single dose",,12.5%
NCCONC(=O)[C@@H]1CC[C@@H]2CN1C(=O)N2OS(=O)(=O)O,refers to: Mild severity,healthy Chinese men,"intravenous, 1 g, treatment-related",,37.5%
CC[C@H](C)CCCCC(=O)N[C@@H](CCN)C(=O)N[C@H](C(=O)N[C@@H](CCN)C(=O)N[C@H]1CCNC(=O)[C@H]([C@@H](C)O)NC(=O)[C@H](CCN)NC(=O)[C@H](CCN)NC(=O)[C@H](CC(C)C)NC(=O)[C@@H](Cc2ccccc2)NC(=O)[C@H](CCN)NC1=O)[C@@H](C)O,refers to: infections and infestations,normal renal function,"intravenous, 0.75 mg/kg",,0%
Cc1c(C(=O)O)ccc2c3n(nc12)[C@@H]1[C@H](C3)N(CC2CC2)[C@@]2(C(=O)Nc3cc(Cl)ccc32)[C@H]1c1cccc(Cl)c1F,"phase Ia trial, refers to: Thrombocytopenia",cancer patients,"oral, dose not given",,32%
O=C1CCc2ccc(OCCCCN3CCN(c4cccc(Cl)c4Cl)CC3)cc2N1,refers to: Akathisia,"patients, CYP2D6 ultrarapid metabolizers","dose not given, long-acting oral or depot",,13%
CC(=O)O[C@H]1C(=O)[C@@]2(C)[C@H]([C@H](OC(=O)c3ccccc3)[C@]3(O)C[C@H](OC(=O)[C@H](O)[C@@H](NC(=O)c4ccccc4)c4ccccc4)C(C)=C1C3(C)C)[C@]1(OC(C)=O)CO[C@@H]1C[C@@H]2O,refers to: blood alkaline phosphatase increased,patients with advanced solid tumours,"intravenous, dose not given, grade 1 and 2, possibly related to drug",,11%
CC[C@H](C)[C@H](NC(=O)[C@H](Cc1ccccc1)NC(=O)[C@H](CCC(=O)O)NC(=O)[C@H](CCCCNC(=O)COCCOCCNC(=O)COCCOCCNC(=O)CC[C@H](NC(=O)CCCCCCCCCCCCCCCCC(=O)O)C(=O)O)NC(=O)[C@H](C)NC(=O)[C@H](C)NC(=O)[C@H](CCC(N)=O)NC(=O)CNC(=O)[C@H](CCC(=O)O)NC(=O)[C@H](CC(C)C)NC(=O)[C@H](Cc1ccc(O)cc1)NC(=O)[C@H](CO)NC(=O)[C@H](CO)NC(=O)[C@@H](NC(=O)[C@H](CC(=O)O)NC(=O)[C@H](CO)NC(=O)[C@@H](NC(=O)[C@H](Cc1ccccc1)NC(=O)[C@@H](NC(=O)CNC(=O)[C@H](CCC(=O)O)NC(=O)C(C)(C)NC(=O)[C@@H](N)Cc1cnc[nH]1)[C@@H](C)O)[C@@H](C)O)C(C)C)C(=O)N[C@@H](C)C(=O)N[C@@H](Cc1c[nH]c2ccccc12)C(=O)N[C@@H](CC(C)C)C(=O)N[C@H](C(=O)N[C@@H](CCCNC(=N)N)C(=O)NCC(=O)N[C@@H](CCCNC(=N)N)C(=O)NCC(=O)O)C(C)C,refers to: Diarrhoea,type 2 diabetes patients,dose not given,reference: subjects,20%
CC(C)n1c(Nc2cccnc2)nc2cnc(Nc3ccc(N4CCN(C)CC4)cc3)nc21,refers to: Hypertriglyceridaemia,healthy male subjects,"oral, 100 mg, with: gemfibrozil",,0%

# Some of these lines once more:
Structure (SMILES),test,test system,setting,how to read,adverse event incidence
CC[C@H](C)CCCCC(=O)N[C@@H](CCN)C(=O)N[C@H](C(=O)N[C@@H](CCN)C(=O)N[C@H]1CCNC(=O)[C@H]([C@@H](C)O)NC(=O)[C@H](CCN)NC(=O)[C@H](CCN)NC(=O)[C@H](CC(C)C)NC(=O)[C@@H](Cc2ccccc2)NC(=O)[C@H](CCN)NC1=O)[C@@H](C)O,refers to: infections and infestations,normal renal function,"intravenous, 0.75 mg/kg",,0%
